{"data": "Measured values from different studies", "note": "Every numbered part comes from another study and shows a few of its results, in no order.", "UniProt O76039, sequence (whole entry, looked up)": "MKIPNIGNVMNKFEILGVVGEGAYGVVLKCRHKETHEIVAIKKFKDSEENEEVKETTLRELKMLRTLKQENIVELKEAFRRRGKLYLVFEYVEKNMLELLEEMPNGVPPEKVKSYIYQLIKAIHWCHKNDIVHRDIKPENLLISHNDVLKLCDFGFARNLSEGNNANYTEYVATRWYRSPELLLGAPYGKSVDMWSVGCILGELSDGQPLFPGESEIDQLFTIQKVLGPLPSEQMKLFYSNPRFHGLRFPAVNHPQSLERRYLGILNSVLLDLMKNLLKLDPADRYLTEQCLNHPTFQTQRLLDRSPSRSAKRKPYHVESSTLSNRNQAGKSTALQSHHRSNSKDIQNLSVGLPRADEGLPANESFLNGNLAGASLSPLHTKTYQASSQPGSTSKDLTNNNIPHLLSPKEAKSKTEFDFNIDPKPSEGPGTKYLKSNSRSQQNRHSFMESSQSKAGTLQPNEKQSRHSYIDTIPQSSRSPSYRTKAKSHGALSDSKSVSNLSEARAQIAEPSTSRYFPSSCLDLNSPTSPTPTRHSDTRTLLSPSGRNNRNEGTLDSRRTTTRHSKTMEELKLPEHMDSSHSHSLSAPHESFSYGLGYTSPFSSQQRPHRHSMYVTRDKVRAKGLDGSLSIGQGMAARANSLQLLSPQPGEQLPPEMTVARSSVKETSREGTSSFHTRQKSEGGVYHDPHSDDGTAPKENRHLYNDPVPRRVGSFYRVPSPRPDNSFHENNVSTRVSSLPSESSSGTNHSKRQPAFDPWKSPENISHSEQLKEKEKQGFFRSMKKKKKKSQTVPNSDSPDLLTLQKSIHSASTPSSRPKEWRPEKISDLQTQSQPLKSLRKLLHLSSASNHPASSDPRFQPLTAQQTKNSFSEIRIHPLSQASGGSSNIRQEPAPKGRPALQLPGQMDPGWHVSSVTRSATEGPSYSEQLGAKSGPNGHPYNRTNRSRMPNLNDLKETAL", "UniProt Q8TBX8, sequence (whole entry, looked up)": "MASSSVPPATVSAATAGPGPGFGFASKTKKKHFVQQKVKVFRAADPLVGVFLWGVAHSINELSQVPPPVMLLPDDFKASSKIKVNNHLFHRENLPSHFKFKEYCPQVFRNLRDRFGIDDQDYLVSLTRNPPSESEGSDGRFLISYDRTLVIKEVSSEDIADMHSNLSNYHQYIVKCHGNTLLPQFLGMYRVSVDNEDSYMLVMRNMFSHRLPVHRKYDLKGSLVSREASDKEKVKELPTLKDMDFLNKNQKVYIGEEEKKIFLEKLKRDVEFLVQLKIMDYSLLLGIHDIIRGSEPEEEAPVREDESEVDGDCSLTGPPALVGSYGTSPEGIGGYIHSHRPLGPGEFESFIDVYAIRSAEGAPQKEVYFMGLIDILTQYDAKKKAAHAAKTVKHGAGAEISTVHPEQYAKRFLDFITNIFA", "UniProt O14936, sequence (whole entry, looked up)": "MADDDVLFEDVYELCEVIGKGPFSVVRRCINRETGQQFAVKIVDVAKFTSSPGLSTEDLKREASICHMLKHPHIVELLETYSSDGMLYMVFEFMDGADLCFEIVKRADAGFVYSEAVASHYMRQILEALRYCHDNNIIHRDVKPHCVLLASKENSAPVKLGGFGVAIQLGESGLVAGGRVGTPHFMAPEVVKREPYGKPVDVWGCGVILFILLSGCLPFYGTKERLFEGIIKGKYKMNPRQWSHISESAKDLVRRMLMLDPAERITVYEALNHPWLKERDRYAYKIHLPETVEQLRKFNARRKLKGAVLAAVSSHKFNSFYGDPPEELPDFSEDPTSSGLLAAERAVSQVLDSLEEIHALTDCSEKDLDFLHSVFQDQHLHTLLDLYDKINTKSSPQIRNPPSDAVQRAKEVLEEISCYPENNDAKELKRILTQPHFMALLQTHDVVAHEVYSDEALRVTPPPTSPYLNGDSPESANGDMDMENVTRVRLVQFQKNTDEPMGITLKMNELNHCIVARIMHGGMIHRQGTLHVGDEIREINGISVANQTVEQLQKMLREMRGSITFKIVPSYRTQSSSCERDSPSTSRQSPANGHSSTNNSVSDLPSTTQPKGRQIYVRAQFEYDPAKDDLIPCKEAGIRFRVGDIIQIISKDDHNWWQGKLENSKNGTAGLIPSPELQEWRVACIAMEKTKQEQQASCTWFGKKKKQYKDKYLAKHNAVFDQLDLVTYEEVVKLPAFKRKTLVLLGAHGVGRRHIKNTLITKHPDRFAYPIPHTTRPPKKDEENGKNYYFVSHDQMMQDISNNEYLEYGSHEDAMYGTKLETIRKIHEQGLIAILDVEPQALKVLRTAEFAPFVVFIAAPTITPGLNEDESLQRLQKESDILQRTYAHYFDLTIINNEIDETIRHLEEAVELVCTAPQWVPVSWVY", "UniProt Q9UL54, sequence (whole entry, looked up)": "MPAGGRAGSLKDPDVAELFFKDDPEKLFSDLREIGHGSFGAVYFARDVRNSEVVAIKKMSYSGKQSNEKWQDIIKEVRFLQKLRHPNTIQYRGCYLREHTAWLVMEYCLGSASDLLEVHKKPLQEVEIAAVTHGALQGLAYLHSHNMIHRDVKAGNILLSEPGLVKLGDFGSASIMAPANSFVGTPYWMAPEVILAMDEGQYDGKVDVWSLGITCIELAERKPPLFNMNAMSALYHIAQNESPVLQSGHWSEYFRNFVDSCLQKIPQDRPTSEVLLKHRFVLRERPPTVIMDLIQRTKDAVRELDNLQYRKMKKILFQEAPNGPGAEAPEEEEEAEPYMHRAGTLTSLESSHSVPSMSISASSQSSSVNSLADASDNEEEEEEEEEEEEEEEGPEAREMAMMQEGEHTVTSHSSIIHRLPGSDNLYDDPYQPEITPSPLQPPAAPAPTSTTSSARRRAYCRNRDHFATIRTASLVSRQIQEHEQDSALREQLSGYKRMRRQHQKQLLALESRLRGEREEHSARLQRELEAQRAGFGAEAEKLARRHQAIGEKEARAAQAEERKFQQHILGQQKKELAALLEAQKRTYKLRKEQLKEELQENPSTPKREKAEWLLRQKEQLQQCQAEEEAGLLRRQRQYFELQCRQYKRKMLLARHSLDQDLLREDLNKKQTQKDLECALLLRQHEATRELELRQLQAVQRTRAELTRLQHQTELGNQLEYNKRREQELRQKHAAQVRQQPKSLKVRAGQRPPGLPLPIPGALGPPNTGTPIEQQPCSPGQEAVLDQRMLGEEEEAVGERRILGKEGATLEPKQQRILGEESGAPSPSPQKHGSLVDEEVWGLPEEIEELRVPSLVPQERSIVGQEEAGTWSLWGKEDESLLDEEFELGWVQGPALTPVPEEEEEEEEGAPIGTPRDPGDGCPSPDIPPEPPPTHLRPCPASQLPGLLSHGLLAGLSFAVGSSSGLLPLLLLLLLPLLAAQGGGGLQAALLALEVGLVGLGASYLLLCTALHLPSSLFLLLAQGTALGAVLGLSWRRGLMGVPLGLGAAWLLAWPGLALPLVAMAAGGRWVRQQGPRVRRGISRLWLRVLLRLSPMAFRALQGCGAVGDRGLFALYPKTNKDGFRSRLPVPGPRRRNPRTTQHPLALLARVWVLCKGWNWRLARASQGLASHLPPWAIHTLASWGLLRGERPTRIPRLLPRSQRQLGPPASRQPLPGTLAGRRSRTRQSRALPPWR", "UniProt Q9BUB5, sequence (whole entry, looked up)": "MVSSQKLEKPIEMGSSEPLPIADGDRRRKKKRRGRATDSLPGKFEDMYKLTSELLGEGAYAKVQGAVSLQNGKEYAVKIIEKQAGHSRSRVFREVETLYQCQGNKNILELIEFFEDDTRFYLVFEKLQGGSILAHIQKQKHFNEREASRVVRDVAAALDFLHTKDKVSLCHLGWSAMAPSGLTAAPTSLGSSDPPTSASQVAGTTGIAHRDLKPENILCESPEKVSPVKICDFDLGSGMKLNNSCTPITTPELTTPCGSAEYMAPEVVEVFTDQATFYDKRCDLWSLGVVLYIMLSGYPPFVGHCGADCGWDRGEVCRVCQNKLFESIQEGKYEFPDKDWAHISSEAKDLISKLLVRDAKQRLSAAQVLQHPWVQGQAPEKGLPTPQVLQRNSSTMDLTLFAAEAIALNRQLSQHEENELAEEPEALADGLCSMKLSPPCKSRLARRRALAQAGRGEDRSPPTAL", "UniProt P08631, sequence (whole entry, looked up)": "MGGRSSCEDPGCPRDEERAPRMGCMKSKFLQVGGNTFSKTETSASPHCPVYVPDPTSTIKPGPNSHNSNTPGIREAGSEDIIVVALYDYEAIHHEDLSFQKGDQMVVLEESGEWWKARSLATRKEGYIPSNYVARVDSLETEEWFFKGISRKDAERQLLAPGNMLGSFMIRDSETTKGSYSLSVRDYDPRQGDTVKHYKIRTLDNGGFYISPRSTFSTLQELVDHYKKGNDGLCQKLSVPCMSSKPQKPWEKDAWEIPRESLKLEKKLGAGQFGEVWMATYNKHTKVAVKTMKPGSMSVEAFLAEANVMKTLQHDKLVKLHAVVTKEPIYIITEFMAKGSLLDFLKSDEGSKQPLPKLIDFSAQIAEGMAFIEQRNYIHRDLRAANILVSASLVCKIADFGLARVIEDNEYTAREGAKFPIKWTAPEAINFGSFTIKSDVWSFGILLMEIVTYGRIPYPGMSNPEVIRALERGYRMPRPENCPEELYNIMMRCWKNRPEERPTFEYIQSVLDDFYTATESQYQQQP"}
{"data": "Set 1", "Structure (SMILES)": "COc1ccc2c(c1)O[C@@H](c1ccc(OC)c(OC)c1)C[C@H]2NC(=O)C1(c2ccc3c(c2)OC(F)(F)O3)CC1", "observed": "cell-free assay", "technique": "competition with immobilised ligand", "tested at": "1 µM"}
{"target": "NEK5 (Homo sapiens, UniProt Q6P3R8)", "remaining binding [%]": 71}
{"target": "NEK9 (Homo sapiens, UniProt Q8TD19)", "remaining binding [%]": 100}
{"target": "FLT3 (Homo sapiens, UniProt P36888, ITD)", "remaining binding [%]": 100}
{"target": "TAOK2 (Homo sapiens, UniProt Q9UL54)", "remaining binding [%]": 83}
{"target": "CDKL5 (Homo sapiens, UniProt O76039)", "remaining binding [%]": 85}
{"target": "MKNK1 (Homo sapiens, UniProt Q9BUB5)", "remaining binding [%]": 78}
{"target": "SRPK1 (Homo sapiens, UniProt Q96SB4)", "remaining binding [%]": 95}
{"target": "EGFR (Homo sapiens, UniProt P00533, L858R/T790M)", "remaining binding [%]": 100}
{"target": "HCK (Homo sapiens, UniProt P08631)", "remaining binding [%]": 88}
{"target": "PIK3CG (Homo sapiens, UniProt P48736)", "remaining binding [%]": 74}
{"target": "MAPK4 (Homo sapiens, UniProt P31152)", "remaining binding [%]": 99}
{"target": "MET (Homo sapiens, UniProt P08581, M1250T)", "remaining binding [%]": 95}
{"target": "CSNK1E (Homo sapiens, UniProt P49674)", "remaining binding [%]": 100}
{"target": "CASK (Homo sapiens, UniProt O14936)", "remaining binding [%]": 100}
{"target": "TBK1 (Homo sapiens, UniProt Q9UHD2)", "remaining binding [%]": 86}
{"target": "MKNK2 (Homo sapiens, UniProt Q9HBH9)", "remaining binding [%]": 93}
{"data": "Set 2", "target": "Ribosomal protein S6 kinase beta-2 (RPS6KB2, Homo sapiens, UniProt Q9UBS0)", "observed": "enzyme activity", "action": "inhibitor", "tested at": "0.5 µM", "relative to": "control", "UniProt Q9UBS0, sequence (whole entry, looked up)": "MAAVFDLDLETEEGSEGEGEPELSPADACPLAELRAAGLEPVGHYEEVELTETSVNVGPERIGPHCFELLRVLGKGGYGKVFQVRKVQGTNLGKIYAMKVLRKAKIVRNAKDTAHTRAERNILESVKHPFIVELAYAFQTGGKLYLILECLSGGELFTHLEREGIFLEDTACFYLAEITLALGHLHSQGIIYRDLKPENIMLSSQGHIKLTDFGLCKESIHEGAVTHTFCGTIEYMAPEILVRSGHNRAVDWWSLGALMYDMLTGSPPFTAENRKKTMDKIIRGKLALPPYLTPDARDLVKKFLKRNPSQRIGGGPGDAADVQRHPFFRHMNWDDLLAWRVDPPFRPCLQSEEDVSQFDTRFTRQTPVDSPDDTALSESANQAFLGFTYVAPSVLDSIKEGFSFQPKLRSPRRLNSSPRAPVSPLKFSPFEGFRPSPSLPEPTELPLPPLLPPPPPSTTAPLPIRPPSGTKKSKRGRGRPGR"}
{"Compound": "O=C1c2ccccc2-c2nc3nnnn3nc21", "remaining activity [%]": 86.3}
{"Compound": "CNc1cc2c(Nc3cccc(Br)c3)ncnc2cn1", "remaining activity [%]": 99.8}
{"Compound": "FC(F)(F)c1ccc(/C=C/c2nc(COc3ccc(CCCCn4ccnn4)cc3)co2)cc1", "remaining activity [%]": 103}
{"Compound": "NC(=O)c1cccc(-c2cc(Nc3ccc(OC(F)(F)F)cc3)ncn2)c1", "remaining activity [%]": 102}
{"Compound": "N#C/C(=C(/N)SC1C=CC=CC1)c1cccc(C(O)c2ccncc2)c1 (centres unmarked)", "remaining activity [%]": 98.9}
{"Compound": "c1cc(-c2cnn3cc(-c4ccc(OCCN5CCCCC5)cc4)cnc23)ccn1", "remaining activity [%]": 94.9}
{"Compound": "O=Nc1c(-c2c(O)[nH]c3ccccc23)[nH]c2ccccc12", "remaining activity [%]": 107}
{"Compound": "O=c1c(-c2ccc(F)cc2)c(-c2ccncc2)[nH]n1-c1ccc(Cl)cc1", "remaining activity [%]": 95.5}
{"Compound": "N#CC(c1ccnc(NCCc2cccnc2)n1)c1nc2ccccc2s1 (centres unmarked)", "remaining activity [%]": 96.5}
{"Compound": "CCCCc1c(-c2ccc(O)cc2)[nH]c2nccnc12", "remaining activity [%]": 102}
{"data": "Set 3", "Compound": "C=CC(=O)N1CCC([C@@H]2CCNc3c(C(N)=O)c(-c4ccc(Oc5ccccc5)cc4)nn32)CC1", "action": "inhibitor", "tested at": "1 µM"}
{"target": "HIPK2 (Homo sapiens, UniProt Q9H2X6)", "observed": "enzyme activity", "inhibition": "0%"}
{"target": "CSNK1A1L (Homo sapiens, UniProt Q8N752)", "observed": "enzyme activity", "inhibition": "24%"}
{"target": "PIP4K2C (Homo sapiens, UniProt Q8TBX8)", "inhibition": "0%"}
{"data": "Set 4", "cell line": "A-375", "tested at": "100 µM", "time": "36 h"}
{"Compound": "O=C(O)c1ccc(O)c(O)c1", "viability [%]": 114}
{"Compound": "NC(=O)N1c2ccccc2CCc2ccccc21", "viability [%]": 81.1}
{"Compound": "O[C@H](CNC[C@@H](O)[C@H]1CCc2cc(F)ccc2O1)[C@@H]1CCc2cc(F)ccc2O1", "viability [%]": -2.69}
{"Compound": "N[C@H]1C(O)O[C@H](CO)[C@@H](O)[C@@H]1O (some centres unmarked)", "viability [%]": 107}
{"Compound": "CN(C)CCCN1c2ccccc2Sc2ccc(Cl)cc21", "viability [%]": -0.0689}
{"Compound": "O=C(c1cc(Cc2n[nH]c(=O)c3ccccc23)ccc1F)N1CCN(C(=O)C2CC2)CC1", "viability [%]": 79.4}
{"Compound": "CC(C)=CCC/C(C)=C/C=C/C(C)=C/C=C/C(C)=C/C=C/C=C(C)/C=C/C=C(C)/C=C/C=C(\\C)CCC=C(C)C", "viability [%]": 95.4}
{"Compound": "N#Cc1cc(-c2n[nH]c(-c3ccncc3)n2)ccn1", "viability [%]": 85.5}
{"data": "Other studies, line by line"}
{"SMILES": "CC(C)n1cnc(-c2ccc(F)cc2)c1-c1ncc(C(=O)Nc2ccc(N3CCN(C)CC3)cc2)[nH]1", "technique": "phase 2a trial", "host": "idiopathic pulmonary fibrosis patients", "dose": "30 mg once daily", "setting": "adverse event grade 1", "endpoint": "patients with CRP increased", "value": "1%"}
